# Experimental data gathered from unrelated publications.
# Protocols differ between the studies behind these lines. “And” joins repeats or separate records; there may be more than shown. ± gives the spread as reported.
# Sequence of UniProt P40939 (whole entry, looked up): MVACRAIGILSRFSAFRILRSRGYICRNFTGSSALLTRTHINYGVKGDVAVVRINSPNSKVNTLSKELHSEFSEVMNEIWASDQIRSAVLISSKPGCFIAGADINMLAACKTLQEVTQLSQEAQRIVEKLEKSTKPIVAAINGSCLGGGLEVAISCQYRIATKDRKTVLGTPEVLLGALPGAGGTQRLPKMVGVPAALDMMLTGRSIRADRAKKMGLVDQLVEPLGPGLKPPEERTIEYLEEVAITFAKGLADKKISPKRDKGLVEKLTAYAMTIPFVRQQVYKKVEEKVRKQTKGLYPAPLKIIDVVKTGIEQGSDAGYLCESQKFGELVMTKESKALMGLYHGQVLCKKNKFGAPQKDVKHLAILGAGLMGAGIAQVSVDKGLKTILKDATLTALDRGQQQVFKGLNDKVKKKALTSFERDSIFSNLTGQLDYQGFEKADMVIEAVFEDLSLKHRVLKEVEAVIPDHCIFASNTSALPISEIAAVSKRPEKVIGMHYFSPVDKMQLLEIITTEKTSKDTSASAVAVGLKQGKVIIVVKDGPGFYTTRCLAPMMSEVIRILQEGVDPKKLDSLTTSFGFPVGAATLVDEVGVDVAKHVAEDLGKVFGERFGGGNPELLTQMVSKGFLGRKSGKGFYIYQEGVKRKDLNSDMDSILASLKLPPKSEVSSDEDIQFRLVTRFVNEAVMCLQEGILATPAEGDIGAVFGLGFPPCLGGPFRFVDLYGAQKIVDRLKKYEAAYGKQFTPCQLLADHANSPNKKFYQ
Compound,target or system,assay,test system,conditions,scale,measurement,result
CC(C)C[C@H](NC(=O)[C@H](CCCCN)NC(=O)OCC1c2ccccc2-c2ccccc21)C(=O)N[C@H](C(=O)N[C@@H](Cc1ccccc1)C(=O)N[C@@H](Cc1ccccc1)C(=O)N[C@@H](CCCCN)C(=O)NCC(=O)N[C@@H](Cc1ccccc1)C(=O)N[C@@H](C)C(=O)N[C@@H](Cc1c[nH]c2ccccc12)C(=O)N[C@@H](CC(N)=O)C(=O)N[C@H](C(=O)N[C@H]1CSSC[C@@H](C(=O)N[C@@H](Cc2c[nH]cn2)C(=O)N[C@@H](CCCNC(=N)N)C(=O)N[C@@H](CCCNC(=N)N)C(=O)N[C@@H](C)C(=O)N[C@@H](CC(N)=O)C(N)=O)NC(=O)[C@H](C(C)C)NC(=O)[C@H](CCCNC(=N)N)NC(=O)[C@H](C(C)C)NC(=O)CNC(=O)[C@H](CC(N)=O)NC(=O)[C@H](CCCNC(=N)N)NC(=O)[C@H](Cc2ccc(O)cc2)NC(=O)[C@H](C(C)C)NC1=O)C(C)C)C(C)C,,,"ICR mouse, blood","intramammary, 5 mg/kg, day 5, 3 d dosing",,calcium,1.37 ± 0.05 mmol/L
O=S(=O)([O-])C(F)(F)C(F)(F)C(F)(F)C(F)(F)C(F)(F)C(F)(F)C(F)(F)C(F)(F)F.[K+],,,male C57BL/6J mice,"oral gavage, 1 mg/kg, 10 days, EtOH-fed or pair-fed",,body weight,no effect
C[C@H]1CN(c2n[nH]c3nc(N[C@H]4CC[C@H](NS(=O)(=O)CCC(F)(F)F)CC4)ncc23)CCO1,"HADHA (Homo sapiens, UniProt P40939)","inhibitor, Kinobeads competition profiling",,0.032 µM,relative to: vehicle,relative abundance,1.05
CC1(C)[C@H](C=C(Cl)Cl)[C@H]1C(=O)OCc1cccc(Oc2ccccc2)c1,,IVIVE scaling,human adult,,,hepatic intrinsic clearance,9170 L/h/kg liver
O[C@H]1CCCN[C@@H]1CCCn1cnc2c(Cl)c(Cl)ccc21,,,human,,,effect of CYP2D6 phenotype on pharmacokinetics,no effect
COc1cc2c(Oc3ccc4[nH]c(C)cc4c3F)ccnc2cc1OCC1(N)CC1,,,paediatric refractory sarcoma patients,8 mg,,grade 3 T-wave abnormality,0%
C[C@H]1CN(C(=O)CC#N)[C@]12CCN(c1ncnc3[nH]ccc13)C2,,,"dog, male","oral, 3 mg/kg repeated, 3 months",,Cmax at NOAEL,2280 ng/mL
COc1ccc([C@@H]2CC(=O)c3c(O)cc(O)cc3O2)cc1O,,,"Sprague-Dawley rat, male, lean, faeces","oral, 100 mg/kg neohesperidin, 36-48 h",,faecal excretion,59.9 ± 44.6 ng
C=C(CN(C(=O)c1c(C(F)F)nn(C)c1F)C1CC1)c1ccc(Cl)cc1Cl,,static acute toxicity test,zebrafish (Brachydanio rerio),"1.00 mg a.i./L, 48 h",,mortality,20%
COc1ncccc1-c1cnn2ccc(N3CCN(C(=O)OC(C)C)CC3)nc12,,,"rat CCI model, plasma","oral, 10 mg/kg, 210 min",,free concentration,36 nM
CN1CC[C@@H](c2c(O)cc(O)c3c(=O)cc(-c4ccc(C(F)(F)F)cc4Cl)oc23)[C@@H]1CO,,item: febrile neutropenia,B-cell malignancies,"oral, 200 mg, grade 3 to 4, intermittent dosing",,patients with adverse event,0%
COc1ncnn2ccc(-c3cnc4nc(C)n(Cc5nnc([C@@H](C)F)o5)c4c3)c12,,,human,"oral, dose not given, grade 5",,patients with dysgeusia,0%
CC(=O)c1c(C)c2cnc(Nc3ccc(C4CCN(CCS(C)(=O)=O)CC4)cn3)nc2n(C2CCCC2)c1=O,,,"human, plasma","oral, 50 mg, day 1 single dose",,t1/2,13.6 h
CCc1ccc(CC/C=C/c2ccc3c(c2)C(=O)CC3)cc1,,,"Sprague-Dawley rat, male","oral, 30 mg/kg/day, 14 days",,TC,1.65 mM
CC(C)c1nc(N(C)S(C)(=O)=O)nc(-c2ccc(F)cc2)c1/C=C/[C@@H](O)C[C@@H](O)CC(=O)O,,,healthy human subjects,"oral, dose not given, study CL-0537 safety set",,incidence of Headache,0%
CCN1[C@@H](C(=O)NC23CCC(C(=O)O)(CC2)CC3)[C@H](c2cccc(Cl)c2F)[C@]2(C(=O)Nc3cc(Cl)ccc32)C12CCCCC2,,,"human, advanced solid tumours","oral, every other day, 21 d on 7 d off",,MTD,150 mg
C[C@H]1COCCN1c1nc(NCc2cccnc2C(F)(F)F)c2cccnc2n1,,,"conscious rat, plasma","intravenous, 10 mg/kg, 5 min",,plasma concentration,36000 ng/mL
COc1ccc2nc3cc(Cl)ccc3c(Nc3cc(CN4CCCC4)c(O)c(CN4CCCC4)c3)c2n1,,,"mouse, blood","intraperitoneal, 57 mg/kg",,neutrophil count,1.88 10⁹/L
O=S(=O)(Nc1ccccc1)c1ccc(NC(=S)Nc2ccccc2)cc1,,,"male mouse, blood","oral, 5 mg/kg daily, 14 days",,chloride level,106 mmol/L
COc1cc(C2C3=C(COC3=O)N(CCO)c3cc4c(cc32)CCC4)cc(OC)c1OC (stereo not drawn),,,female C57BL/6 mice,"intraperitoneal, 100 mg/kg, 24 h, single dose, mean",,body weight,20.7 g
CO[C@H]1C[C@@H]2CC[C@@H](C)[C@@](O)(O2)C(=O)C(=O)N2CCCC[C@H]2C(=O)O[C@H]([C@H](C)C[C@@H]2CC[C@@H](OC(=O)NCCOCCOCCOCCOCCOCCOCCOCCOCCC(=O)N3CCc4cc(Cn5nc(-c6ccc7oc(N)nc7c6)c6c(N)ncnc65)ccc4C3)[C@H](OC)C2)C[C@@H](O)[C@H](C)/C=C(\C)[C@@H](O)[C@@H](OC)C(=O)[C@H](C)C[C@H](C)/C=C/C=C/C=C/1C,,"phase 1 dose escalation, item: neutropenia",advanced solid tumour patients,"intravenous, 12 mg weekly, grade ≥3",,dose-reducing adverse events,0%
C[C@]1(CO)Cc2ncn(-c3ccc(C#N)c(Cl)c3)c2C(=O)O1,,,"healthy Japanese adults, plasma","40 mg once daily, multiple dose",,Tmax at steady state,1 h
COc1cccc(Oc2ccccc2NC(=O)CNC(=O)c2cccc3ccccc23)c1,,,"esterase-deficient SCID mice, male, blood","oral, 100 mg/kg/day, 14 days, toxicity study",,mean corpuscular hemoglobin,15 pg and 14.9 pg
O=C(Nc1ccccc1)C1CCN(C(=O)Oc2cccnc2)CC1,,,healthy women,"oral, 60 mg, 7 days",,adverse event Rash,0%
COc1ccc([C@@H](O)c2cc(-c3ncnc4cc(N5CCOCC5)ccc34)c(F)cc2Cl)nn1,,,"patients, advanced solid tumours","oral, 200 mg twice daily, treatment-emergent, together with: avelumab",,stomatitis incidence,10%
CCCCN(CCCC)CCCNC(=O)c1cc(-c2ccc(Cl)s2)nc2ccccc12,Vero-E6,CellTiter-Glo ATP,,"72 h, retest 8-point duplicates","relative to: DMSO 0%, hyamine -100%, more negative, more toxic",maximum response,-12.5%
[2H]C([2H])([18F])[C@]([2H])(N)C(=O)O,,radio-HPLC,saline formulation,up to 3 h,,radiochemical purity,> 98%
O=C(O)CCCOc1ccc(F)cc1-c1cc(-c2ccccc2C(F)(F)F)n(-c2ccccc2)n1,,,"male Crl:CD(SD) rats, kidneys","intravenous, 25 µg/kg, 14 d",,organ weight,3.1 ± 0.26 g
NCCCC[C@@H]1NC(=O)[C@@H](Cc2c[nH]c3ccccc23)NC(=O)[C@H](c2ccccc2)NC(=O)[C@@H]2C[C@@H](OC(=O)NCCN)CN2C(=O)[C@H](Cc2ccccc2)NC(=O)[C@H](Cc2ccc(OCc3ccccc3)cc2)NC1=O,,,healthy human volunteers,1950 µg twice daily,,subjects with injection-site pain,45%
CCCCN(CCCNC(=O)c1cc(Nc2ccc(OC)c(OC)c2)nc2ccccc12)Cc1ccccc1,Vero-E6,CellTiter-Glo ATP,,"72 h, retest 8-point duplicates","relative to: DMSO 0%, hyamine -100%, more negative, more toxic",maximum response,-3.93%
